Results from different studies.
Every numbered part comes from another study and shows a few of its results, in no order.

Set 1
Target: Interferon regulatory factor 7, full length, phosphomimetic (IRF7, Homo sapiens, UniProt Q92985, residues 1-503, S101K/S471D/S472D/S475D/S476D/S477D/S483D/S484D/S487D)
Technique: protein-binding microarray
Molecule type: double-stranded DNA, one strand shown
Matrix: in vitro
Concentration: 250 nM
Notes: 60-bp whole probe
Together with: salmon DNA 0.4 mg/ml
Relative to: random background probes
Reading: higher = stronger binding
Endpoint: log fluorescence
Constant ends, left off below: GCCTAGCAC … GTCTTGATTCGCTTGACGCTGCTG
Residues (chain): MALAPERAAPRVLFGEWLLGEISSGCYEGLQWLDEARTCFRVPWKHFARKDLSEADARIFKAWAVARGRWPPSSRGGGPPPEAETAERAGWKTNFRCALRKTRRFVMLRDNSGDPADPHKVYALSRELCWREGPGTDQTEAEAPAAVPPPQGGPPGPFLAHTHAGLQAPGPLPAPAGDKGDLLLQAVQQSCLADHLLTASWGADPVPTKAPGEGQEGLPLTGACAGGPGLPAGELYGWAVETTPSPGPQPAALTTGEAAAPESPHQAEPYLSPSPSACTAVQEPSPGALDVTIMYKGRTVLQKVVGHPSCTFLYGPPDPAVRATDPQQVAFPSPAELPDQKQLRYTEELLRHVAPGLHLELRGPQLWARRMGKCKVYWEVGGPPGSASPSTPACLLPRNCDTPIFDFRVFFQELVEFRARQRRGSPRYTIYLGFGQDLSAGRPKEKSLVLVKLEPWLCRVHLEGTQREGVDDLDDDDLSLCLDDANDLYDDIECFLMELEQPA
GACAATTTCAGTTTCGAGACGTGCTAG: 5.32 z-score
TTAGGTTCCGGTTTGGGTTAGTGCTAG: 7.26 z-score
AAAGATTTACAAACTGTGAGGGTGCTA: -0.231 z-score
TAAGGACTGGGGACTGGGTTAGTGCTA: -0.471 z-score
GACGGTTCCCTTTTCCTCACGTGCTAG: 3.5 z-score
GACGGTTCCCTTTTCATGACGTGCTAG: 2.38 z-score
TTAGAACTGGGGTATCGTTTAGTGCTA: 0.254 z-score
GATGGTTTCCTACTGCTGACGTGCTAG: 1.33 z-score
TTAGGTATCGACTTTCGGCTAGTGCTA: 1.41 z-score
GACGGTCTCCTACTGCTGAGGTGCTAG: -0.443 z-score
CGAGACCTCGTCTCTATCAAAGTGCTA: -0.271 z-score
TTAGGTATCGGCCTGGGTTAGTGCTAG: -0.165 z-score
TCCATGACCTACCCTGCGTTGTGCTAG: -0.236 z-score
TTAGGAATCCTACTGCTTTAGTGCTAG: -0.153 z-score
GACGGTTTCGGACTGGGGACGTGCTAG: 3.75 z-score
GACGGTTCCGGTTTCGGAACGTGCTAG: 9.51 z-score
GACGGTATCATTATCCTGACGTGCTAG: 0.0586 z-score
TGAGGTATCGACTATCGGTTAGTGCTA: -0.0383 z-score
GACGATTTCGGGGCTGGAGACGTGCTA: -0.193 z-score

Set 2
Target: Hepatocyte nuclear factor 3-alpha (Foxa1, Mus musculus, UniProt P35582, residues 1-468, full length assumed)
Technique: EMSA with sequencing
Molecule type: double-stranded DNA, one strand shown
Matrix: in vitro
Concentration: 10 and 20 nM
Notes: whole designed probe, mean of two concentrations, ends assumed
Relative to: negative control set to 0
Reading: higher = stronger binding
Endpoint: normalised bound fraction
Residues (chain): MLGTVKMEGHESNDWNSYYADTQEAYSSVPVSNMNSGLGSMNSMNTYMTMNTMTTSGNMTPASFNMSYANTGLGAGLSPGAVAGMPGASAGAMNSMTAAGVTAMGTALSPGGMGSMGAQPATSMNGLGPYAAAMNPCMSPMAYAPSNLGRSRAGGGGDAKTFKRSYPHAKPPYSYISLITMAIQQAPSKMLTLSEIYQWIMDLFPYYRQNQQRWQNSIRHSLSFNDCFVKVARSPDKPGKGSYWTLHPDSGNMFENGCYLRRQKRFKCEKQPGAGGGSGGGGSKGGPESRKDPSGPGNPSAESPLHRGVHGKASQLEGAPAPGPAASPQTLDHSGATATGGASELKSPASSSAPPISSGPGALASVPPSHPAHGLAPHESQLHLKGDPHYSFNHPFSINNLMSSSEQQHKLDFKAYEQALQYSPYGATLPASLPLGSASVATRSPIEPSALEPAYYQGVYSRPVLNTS
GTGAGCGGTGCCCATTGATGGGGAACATCCTGTAGCCTCAGGGCTCTGACGTAAGCCACTTATCCTTGGGAAACATTTAGGTAAATATCACAGCTGATGTTGCAATTGTGCTCAAAGAATGTTTGCATTTCATAAAAGAGGAGACTCCTAGACACTAACACCCTAATCCACAAGGAATGCTCCCACATGCAGACATTTGGATACCTGCAAATAACAAGGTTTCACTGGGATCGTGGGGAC: 0.364 ratio
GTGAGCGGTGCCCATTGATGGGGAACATCTTCCCCCTCTTCCTTGCCCCACCAGCTCACCTACGGGGGTTATTTGCAGATAGGAAAATAAATAAAGCCGGCATTCGTTAACGCAGTTCACGCGCATACTGCTGTTTGCTCTGCATCTAACATGGTCCTTACGCGACGCCAGGCTCCGGGAGAGCAAAGCACCGTGTCAGGCGCATGATCCGGGCTCGCCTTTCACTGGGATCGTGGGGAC: 0.359 ratio
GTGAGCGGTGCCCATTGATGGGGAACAAGTATCATAATGTGGGCTACTCACTAAAAAAAATTTTCTTCTTTTTTTTTTTCTCCCTGCTAAATATTTTCAGGATGAGTCAGTTGGTCTGTATTTGCATTGGGCATAAAATCAACATGCTAGTCAACTAGCTTTTTCTCTTTTCATTAAAGTAGTTTCTAGAGCAGAAAGTAGCAGAGGTGGAGGTGGTAATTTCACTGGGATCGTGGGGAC: 0.305 ratio
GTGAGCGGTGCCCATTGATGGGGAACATCTTCCCCCTCTTCCTTGCCCCACACCACCTCGTTCCCGGGTTATTTGCAGATAGGAAAATAAATAAAGCCGGCATTCGTTAACCCTCTTCTGGCGCAAACTGCTGTTTGCTCTGGATGAATCATGGTCCTTTGGCGACGCCAGGCTCCGGGAGAGCAAAGCACCGTGTCAGGGCCATGATCCGGGGTGGCCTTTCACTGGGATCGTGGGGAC: 0.327 ratio
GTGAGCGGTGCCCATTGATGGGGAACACTGCTCACCACAGTTTTAAAGCTTTGCCTCTACCTGAAAACCAAACTGGATATGCAGTTAAGTGGAGAATTTAATCTTCCTTTAAAGACAATGCAAACAATTGGTGCCCCTTTAAAACTCGCTTTCTTGTTGAAAGTGAATATTTCTTTTGGATCATTCAAAAACTTCAAGTTTCTTCTGTGATTGTGTACATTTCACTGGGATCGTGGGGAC: 0.364 ratio

Set 3
Target: Histone acetyltransferase KAT6A, winged helix 2, GST fusion (KAT6A, Homo sapiens, UniProt Q92794, residues 85-181)
Technique: protein binding microarray
Molecule type: double-stranded DNA, one strand shown
Matrix: in vitro
Concentration: not given
Notes: 8-mer, flanks averaged, mean of 2 arrays, mostly near background
Relative to: not given
Reading: higher = stronger binding
Endpoint: E-score
Target sequence (chain): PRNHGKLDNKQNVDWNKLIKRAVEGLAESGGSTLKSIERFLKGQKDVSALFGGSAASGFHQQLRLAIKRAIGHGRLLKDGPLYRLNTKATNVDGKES
ACGTCTAT: -0.273
ACCCCAGA: -0.152
ATAATTCC: -0.024
ATTGGTGG: -0.0283
CAATAGAC: -0.0947
CTGGGGCC: 0.137
AGGCAATG: 0.0597
TTCGAAAA: 0.19
CTTCAGGA: 0.0188
ATCCGTGA: 0.0906
ACCCTTCA: -0.0385
GTGGCCAC: 0.151
GCAGATCC: 0.114
TAGTAATA: 0.00351
AGTAGCTC: -0.0552
ATGGTTGC: -0.0457
ATCAAACC: -0.0576
AGAAGCAG: 0.0984
ACAGTCGA: -0.0766
ACTAAACC: -0.0041
GGTACTAC: -0.0214
ACGAGATA: -0.034
ATGGAGTG: -0.163
CGAGACTA: -0.116
AGTGTCGC: 0.141

Set 4
Target: RING finger protein unkempt homolog, zinc fingers 1-6, GST-SBP tag (UNK, Homo sapiens, UniProt Q9C0B0, residues 30-357)
Technique: RNA Bind-n-Seq
Molecule type: RNA
Matrix: in vitro
Concentration: not given
Notes: RNA with constant flanks, human and mouse sites, ends assumed
Relative to: input RNA pool
Reading: higher = stronger binding
Endpoint: bound/input enrichment
Construct (chain): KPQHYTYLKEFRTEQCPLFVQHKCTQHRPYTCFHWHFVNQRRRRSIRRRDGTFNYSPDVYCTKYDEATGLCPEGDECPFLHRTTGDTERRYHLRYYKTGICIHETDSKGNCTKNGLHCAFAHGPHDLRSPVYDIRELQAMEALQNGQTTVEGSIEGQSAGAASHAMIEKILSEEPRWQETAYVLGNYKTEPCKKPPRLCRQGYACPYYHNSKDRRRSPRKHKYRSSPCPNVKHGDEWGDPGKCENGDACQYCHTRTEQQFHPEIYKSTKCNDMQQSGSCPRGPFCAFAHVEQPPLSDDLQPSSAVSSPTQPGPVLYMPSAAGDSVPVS
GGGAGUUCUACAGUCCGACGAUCCAGUCCCCGUGUCCCAGUGCAGGACGAUGUGAACAAAAACUCAAAGCGGACCCUCUAUUGUAGUUCUUGAUUCUCGAAAUGUGCUAUUAUUGUUUGUCUUUUUUUUUUUUUUUUUAAAGACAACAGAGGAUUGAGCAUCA: 1.17 ratio
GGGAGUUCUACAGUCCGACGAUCUUUUUCCCUUUUGUUUUGUUUUUAUUAUUAACUGAUUUAAAGUAGAACAAAAACAGCUUCUGGCGAGGACCAGGCUGACCAGGGUGCUGUAGCCAGCCUGCUUGCUGUACUUGGUCAUUUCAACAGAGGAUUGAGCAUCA: 0.21 ratio
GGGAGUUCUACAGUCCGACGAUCCAUGUGACUGUGAAGAAGCUGUUUGUUGGUGGAAUUAAGGAAGAUACUGAGGAACACCACCUUAGAGAUUACUUUGAAGAGUAUGGAAAAAUUGAUACUAUUGAAAUAAUUACCGAUAGGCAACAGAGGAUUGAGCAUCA: 2.8 ratio
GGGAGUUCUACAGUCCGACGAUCAAAGCCCAAGUAUUUUGAAAAAACUCGAACAGAUUUGACAAGGGUAGCCAGCUUGGAGUCUAGCAACUUGCCAAUGUGUUUACCAAUCUGGGGGCUUGUUUUUCUUUUCUUCUUUCAAAUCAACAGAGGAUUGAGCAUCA: 0.314 ratio
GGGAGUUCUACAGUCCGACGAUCUGGGUGUGUUCAUACCAGAAGCUCUCAUCACAGUCACACCCAUUUCGUGGCAGCUGUGGAUCAUUUUACGUAUUUUUAGUCAGGCUCAAAGAAGUGACUCAGGUUUGUCAAGUUCUGUUCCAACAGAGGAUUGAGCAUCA: 1.8 ratio
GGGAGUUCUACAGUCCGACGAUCUUCAUUCAUGCUAAUGUUGACAUUGACUUAAUUAUCACAGAAGAACCUGAAAUUGGCAAUAUAGAAAAACCUGUAGAAAUUUUUCAUAUAAUUGAGCAUUUUUGUCUUGGUAGAAGACGCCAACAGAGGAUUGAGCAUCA: 1.17 ratio
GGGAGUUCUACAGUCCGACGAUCAAUGCGUGGAUGGAGACGGAAGCCGUGAACUACCAUGAUGAAACAGGGGAGACCAUGGACAACCUCACCCUGGAGGCCGGAGAUGACGCAGGGAAGGUGAAGUGGGUGGACAUCAGCGACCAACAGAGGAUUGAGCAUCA: 0.18 ratio
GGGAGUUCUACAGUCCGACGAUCCCUGCUGUGAACAUCCAGCCCGACAUUGCUGGAGGUUGGGACUGGCACACCAAACCAGGAGGUUUUGGAAUGGGGAGCAAAUCCGCUGCCACCAGCCCGACAGGCUCAUCACAUGGCACCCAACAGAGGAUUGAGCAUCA: 0.0811 ratio

For quick reference, copied from above (set 1):
TGAGGTATCGACTATCGGTTAGTGCTA: -0.0383 z-score
CGAGACCTCGTCTCTATCAAAGTGCTA: -0.271 z-score
TTAGGTTCCGGTTTGGGTTAGTGCTAG: 7.26 z-score
GACGGTATCATTATCCTGACGTGCTAG: 0.0586 z-score
TAAGGACTGGGGACTGGGTTAGTGCTA: -0.471 z-score
GACAATTTCAGTTTCGAGACGTGCTAG: 5.32 z-score
GACGGTTCCCTTTTCATGACGTGCTAG: 2.38 z-score
TCCATGACCTACCCTGCGTTGTGCTAG: -0.236 z-score
GACGGTCTCCTACTGCTGAGGTGCTAG: -0.443 z-score
